Assay results pooled from the literature.
Every numbered part comes from another study and shows a few of its results, in no order.

Study 1 — technique: protein-binding microarray; form: double-stranded DNA, one strand shown; matrix: in vitro; concentration: 940 nM top; setting: 60-bp whole probe; together with: salmon DNA 0.4 mg/ml; relative to: random background probes; reading: higher = stronger binding; endpoint: fitted relative affinity; shared flanks, not repeated: GCCTAGCAC … GTCTTGATTCGCTTGACGCTGCTG
Target: Interferon regulatory factor 5, full length, phosphomimetic (IRF5, Homo sapiens, UniProt Q13568-2, residues 1-514, S451D/S453D/S456D/S462D)
GCCGGTATCCTTTTCCTGACGTGCTAG: 0.916 z-score
TTAGGACAGGACTATCGGTTAGTGCTA: -0.0153 z-score
GACGGGCTCGGTTTCGGGACGTGCTAG: 2.95 z-score
TCAACTTTGCTCTGTGCAACTGTGCTA: -0.0523 z-score
TCTCTTTTATTTTTTTTATTGTGCTAG: 4.31 z-score
TCATCTTTCACTACTCCACTGTGCTAG: 2.39 z-score
TTAGGTATCCTTAGCCTTTAGTGCTAG: 0.0951 z-score
TCAGGTATGCTCATGACACTGTGCTAG: -0.185 z-score
TACGGTTTCCTTTCCCTGACGTGCTAG: 1.82 z-score
GGTTTTTACTTTCTGAATGCGTGCTAG: 2.17 z-score
TCACATTCCCCATTGTGACTGTGCTAG: 0.938 z-score
GACGGTAACGGTATCGGGACGTGCTAG: 1.52 z-score
GACGGACAGGGTATCGGGACGTGCTAG: 0.304 z-score
TTAGGTTTCGACTATCGTTTAGTGCTA: 9.66 z-score
GCCGGACTGCTTCTCCTGACGTGCTAG: -0.174 z-score
TCCATTTTTACCCTCCTTACGTGCTAG: 1.71 z-score
TCACCTAACATGCTTCGAACTGTGCTA: 0.384 z-score
TCAAGTATTTATCTGCAACTGTGCTAG: 0.303 z-score
GACCATTCCAGTTTCGAGACGTGCTAG: 4.65 z-score

Study 2 — technique: protein binding microarray; form: double-stranded DNA, one strand shown; matrix: in vitro; concentration: not given; relative to: not given; reading: higher = stronger binding; endpoint: E-score
Target: Histone acetyltransferase KAT6A, winged helix 1, GST fusion (KAT6A, Homo sapiens, UniProt Q92794, residues 1-85)
Setting: 8-mer, flanks averaged, mean of 2 arrays, mostly near background
Target sequence (chain): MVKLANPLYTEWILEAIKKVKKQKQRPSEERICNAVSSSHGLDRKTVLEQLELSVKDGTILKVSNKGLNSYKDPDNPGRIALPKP
CTGACCTA: -0.155
ATCGATTC: -0.151
GGATACTA: -0.117
CAAGATGG: -0.209
CGGAGGTC: 0.0455
AAGCCCAA: -0.198
AGTTGATG: -0.182
ACCACGAA: -0.218
CAACGTAC: -0.137
CCCTCCGC: 0.133
CACCCATG: -0.077
GTAACAAA: 0.0158
GACTAGGC: -0.00463
GAGGTGCA: -0.0122
AGAACCGC: 0.127
ATGTTCAC: -0.215
AGGATAAA: -0.227

Study 3 — technique: universal PBM; form: double-stranded DNA, one strand shown; matrix: in vitro; concentration: 600 nM; reading: higher = stronger binding; endpoint: E-score
Target: Sal-like protein 4, full length isoform A (SALL4, Homo sapiens, UniProt Q9UJQ4, residues 1-1053)
Chain of UniProt Q9UJQ4 (whole entry, looked up): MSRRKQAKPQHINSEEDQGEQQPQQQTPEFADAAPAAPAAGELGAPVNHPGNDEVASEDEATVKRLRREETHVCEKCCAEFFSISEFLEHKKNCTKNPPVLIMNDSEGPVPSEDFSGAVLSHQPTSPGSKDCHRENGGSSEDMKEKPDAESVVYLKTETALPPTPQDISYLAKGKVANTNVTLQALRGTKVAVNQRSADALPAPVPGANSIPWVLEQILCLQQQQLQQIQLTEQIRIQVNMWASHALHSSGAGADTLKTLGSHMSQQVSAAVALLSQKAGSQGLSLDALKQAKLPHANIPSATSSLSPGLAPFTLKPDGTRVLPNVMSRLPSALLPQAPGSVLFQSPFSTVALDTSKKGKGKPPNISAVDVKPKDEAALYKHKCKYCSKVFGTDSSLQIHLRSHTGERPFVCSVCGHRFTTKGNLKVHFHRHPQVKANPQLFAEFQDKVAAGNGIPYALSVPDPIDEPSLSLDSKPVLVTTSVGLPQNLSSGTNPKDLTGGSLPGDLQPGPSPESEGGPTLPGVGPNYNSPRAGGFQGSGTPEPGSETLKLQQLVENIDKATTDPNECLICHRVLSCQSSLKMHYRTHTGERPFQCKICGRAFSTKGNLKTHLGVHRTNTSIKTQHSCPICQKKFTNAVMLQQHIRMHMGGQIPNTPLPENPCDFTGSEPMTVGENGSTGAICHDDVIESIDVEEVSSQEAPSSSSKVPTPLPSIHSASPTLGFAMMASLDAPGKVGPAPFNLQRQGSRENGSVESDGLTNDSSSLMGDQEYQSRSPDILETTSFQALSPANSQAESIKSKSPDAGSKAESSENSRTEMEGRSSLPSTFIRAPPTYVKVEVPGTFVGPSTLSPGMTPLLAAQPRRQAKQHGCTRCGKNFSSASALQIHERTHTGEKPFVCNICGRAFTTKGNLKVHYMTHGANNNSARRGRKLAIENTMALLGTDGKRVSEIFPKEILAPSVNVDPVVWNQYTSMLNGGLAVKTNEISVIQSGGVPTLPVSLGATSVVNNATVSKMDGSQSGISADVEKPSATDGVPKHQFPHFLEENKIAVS
Setting: 8-mer, flanks averaged, mean of replicates
CCCTAGAC: -0.204
CCGATCTA: -0.0825
CTGGATGA: -0.142
CCGAAAGA: -0.0914
AAATACTT: 0.3
AGATTATC: 0.229
GCTCGTAA: -0.0352
AGAAAGTA: 0.221
ATTGTCGG: -0.0418
AAGGGCGT: -0.186
AGCTGCAG: -0.102
AAATCAGG: 0.0744
ACGAGTTC: -0.0225
CGTGCTCC: -0.28
CCCTAATA: 0.226
GATCTCCC: -0.259
TGGATCAA: 0.161
TCGACTAA: 0.0923
CTGACGAC: -0.1
TGCAAGCA: -0.0369
CCACAGGG: -0.322
AAGTAAAA: 0.254
CTTGACTA: 0.0423
ACCCATGC: 0.00933
CCAGAAAC: -0.0763

Study 4 — technique: RNA Bind-n-Seq; form: RNA; matrix: in vitro; concentration: 365 nM; relative to: no-protein control; reading: higher = stronger binding; endpoint: RBNS enrichment (R)
Target: RNA binding protein fox-1 homolog 2, RRM domain, GST-SBP tag (RBFOX2, Homo sapiens, UniProt O43251-10, residues 100-194)
Setting: natural RNA segment, single round, ends assumed
Shared flanks, not repeated: GGGAGUUCUACAGUCCGACGAUC … UGGAAUUCUCGGGUGCCAA
Target sequence (chain): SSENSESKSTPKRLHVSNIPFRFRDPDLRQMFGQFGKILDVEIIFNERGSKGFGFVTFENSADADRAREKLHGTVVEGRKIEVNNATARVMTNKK
CUUAUGCAGUGUAGUGUUCCCUUUCUGAAGACCUCAUUGUAAGACAGCUUUAUGUGCAUAGUGCUCAUCUGUAGCUAGGGCACACCAAAGGUCAUAUUUUAACUCUUUAU: 0.408
ACCAAAGGCUCCUUCCAGGAGCGCGCCAGCAAGCCUUACUGCCAGCCUUGCUUCCUGAAGCUCUUCGGCUGACCUCCUCUUGGGAUCAGAGAUCUCCAAAACUAAGCCUU: 0.137
GAGAUAGAAGUUAUGACAUAUGUAAUACACAUCUGUGUACACAGAAACCGGCACCUGCCAGACAGAGCUGGUUCUAAGAUUUAAUACAGUGCUUUUUUUCCUCUUUGAAA: 0.41
UUACUGGGUUUGUUUUUAAUAUUAUUACAAAAUAGAAUGAUCCAGUGUUGCAGAUUUGAUACAACUCCCCAAUCUAGAUUUGACCUAACAUUCUGAAUGAACAGGGUAGG: 0.381
CCAGCAGGCAGGUGUUCUGAGGCUGGUCCCUCCUCAGUUUCCGCAGCCACAAGGCGAAACGGCCAGAUUCUCACUCAAGGUCGUUCUCACUCCUUUUCCUGUCCCGUUUC: 0.521
GGGCCAUGGGAGGUCCUGGCUAGAGUUCUGCCCAACCUUGACCAACCCCAGCAAUUUUUCCAAAAGCCAGUCAAGGGCAUUACAUUUGUUCCUGGGACUGGCAGCUGGGC: 0.243
GGUUCUAACCCUUUGCUGUACACAAGCAGACAGAAAUGCAUCUGUUACAUAAAUGAGAAAAAGCUAUUAUGCUGAUGGAGCAUGCUUUUUAAAUCCUUUAAAAACACUCA: 0.957
CGUUUUUUUAAAUUUUUUAUUCUGAUUGCUGUAUUAUAUUGGGGAUGUUCUAAACAACCAAACUAAAGCUGUGUACAGAUUGGGUUUGGAGCGGUGGGGACGUCAGCAGG: 0.582

Study 5 — technique: RNA Bind-n-Seq; form: RNA; matrix: in vitro; concentration: 200 nM; setting: whole 134-nt RNA, ends assumed; together with: 150 mM LiCl; relative to: input library; reading: higher = stronger binding; endpoint: log2 enrichment; all molecules: 7-deaza-guanosine replaces G
Target: Fragile X messenger ribonucleoprotein 1, C-terminal low-complexity region (Fmr1, Mus musculus, UniProt P35922)
Shared flanks, not repeated: GGGAGUUCUACAGUCCGACGAUC … UGGAAUUCUCGGGUGUCAAGG
GCAGGAAGUAAAAACAAAUGGAAAUGCUUCGGAUAGUGGCAGGGGUGGGGGUUGCUAAGGAAAGCGUGGGAUGGGAGUGGGUAAAGAGUU: 1.36
CUGUGCUACACAUCGUAUGUACCGAAUCGGGGAAAAAAAGGGGAAAGGGGUUUUUUUGGGGAAAGUAUUAUGUUACGCCGUUCGGAUCUG: -0.934
UAACUUUAGAGGAGGAUCUGAUGGAUAUGGCAGUGGACGUGGAUUUGGGGAUGGCUAUAAUGGGUAUGGAGGAGGUCCUGGAGGUGGCAA: 0.737
UGGGAGGUGGAUUUUGUUUAUUUUUUUAGCUCAUUUCCAGGGGUGGGAAUUUUUUUUUAAUAUGUGUCAUGCAUAAAGUUGUUUUUGAAA: 0.287
UAACUUUAGAGGAGGAUCUGAUGGAUAUGGCAGUGGACGUUGAUUUGGGGAUGGCUAUAAUGGGUAUGGAGGAGGACCUGGAGGUGGCAA: 0.412
CUGUGCUACACAUCGUAUGUACCGAAUCGGGGCCCCCCCGGGGCCCCCCCGGCCCCCCCGGAAAGUAUUAUGUUACGCCGUUCGGAUCUG: 0.173
CACAGACAACACGCACCCACACAGACACAGAGGGAAGGGGUUGGAAAGGGGACAGGGUGCACAGCAGGGCGGGGUAGGACCCCAGCCCCU: -0.191
AAGUCCUGUGCUACACAUCGUAUGUACCGAAUCGGAAAAGGAAAAGGGGAAAAGGGGAAAGUAUUAUGUUACGCCGUUCGGAUCUGCACU: 0.398

For quick reference, copied from above (study 5):
UAACUUUAGAGGAGGAUCUGAUGGAUAUGGCAGUGGACGUGGAUUUGGGGAUGGCUAUAAUGGGUAUGGAGGAGGUCCUGGAGGUGGCAA: 0.737
UGGGAGGUGGAUUUUGUUUAUUUUUUUAGCUCAUUUCCAGGGGUGGGAAUUUUUUUUUAAUAUGUGUCAUGCAUAAAGUUGUUUUUGAAA: 0.287
UAACUUUAGAGGAGGAUCUGAUGGAUAUGGCAGUGGACGUUGAUUUGGGGAUGGCUAUAAUGGGUAUGGAGGAGGACCUGGAGGUGGCAA: 0.412
CUGUGCUACACAUCGUAUGUACCGAAUCGGGGCCCCCCCGGGGCCCCCCCGGCCCCCCCGGAAAGUAUUAUGUUACGCCGUUCGGAUCUG: 0.173
CACAGACAACACGCACCCACACAGACACAGAGGGAAGGGGUUGGAAAGGGGACAGGGUGCACAGCAGGGCGGGGUAGGACCCCAGCCCCU: -0.191
AAGUCCUGUGCUACACAUCGUAUGUACCGAAUCGGAAAAGGAAAAGGGGAAAAGGGGAAAGUAUUAUGUUACGCCGUUCGGAUCUGCACU: 0.398
